Measurements collected from several papers.
Protocols differ between the studies behind these lines.
Organism: Acinetobacter baumannii

C#CCOc1ccc(CN[C@@]2(C)C[C@H](O[C@H]3[C@H](Oc4c5cc6cc4Oc4ccc(cc4Cl)[C@@H](O)[C@@H](NC(=O)[C@@H](CC(C)C)NC)C(=O)N[C@@H](CC(N)=O)C(=O)N[C@H]6C(=O)N[C@H]4C(=O)N[C@H](C(=O)N[C@H](C(=O)NCC(N)=O)c6cc(O)cc(O)c6-c6cc4ccc6O)[C@H](O)c4ccc(c(Cl)c4)O5)O[C@H](CO)[C@@H](O)[C@@H]3O)O[C@@H](C)[C@H]2O)cc1OC has an MIC of 128 µg/mL (broth microdilution; BAA-747, cation-adjusted Mueller-Hinton broth; 18 to 20 h, 37 °C, 0.002% polysorbate 80).
The MIC of COc1ccc2ccc(O)c(/C=N/[C@H]3CCCC[C@H]3/N=C/c3ccccc3O)c2c1 is reported as over 40 µM (bacterial growth, broth microdilution; carbapenem-resistant clinical isolate).
CCCCCCCC[N+](C)(C)CCCCCCCCCCOc1cc(OCCCCCCCCCC[N+](C)(C)CCCCCCCC)cc(OCCCCCCCCCC[N+](C)(C)CCCCCCCC)c1.[Br-].[Br-].[Br-] has an MIC of 16 µM (ATCC 17978).
CCCCCCCC(=O)N[C@@H](CCN)C(=O)N[C@H](C(=O)N[C@@H](C)C(=O)N[C@H]1CCNC(=O)[C@H]([C@@H](C)O)NC(=O)[C@H](CCN)NC(=O)[C@H](CCN)NC(=O)[C@H](CC(C)C)NC(=O)[C@@H](Cc2ccccc2)NC(=O)[C@H](CCN)NC1=O)[C@@H](C)O has an MIC of 4 µg/mL (broth microdilution; ATCC 17978; 20 h, 37 °C).
CC(C)(O/N=C(\C(=O)N[C@@H]1C(=O)N(OS(=O)(=O)O)C1(C)C)c1nsc(N)n1)C(=O)O gave an MIC of over 64 µg/mL (agar dilution; 16-16).
CC[C@H]1OC(=O)[C@H](C)[C@@H](OC(=O)Cc2ccc([N+](=O)[O-])cc2)[C@H](C)[C@@H](O[C@@H]2O[C@H](C)C[C@H](N(C)C)[C@H]2O)[C@](C)(OC)C[C@@H](C)C(=O)[C@H](C)[C@@H](O)[C@]1(C)O gave an MIC of over 32 µg/mL (microbial growth; ATCC19606).
CCCCCCCC(=O)N[C@@H](CCN)C(=O)N[C@H](C(=O)N[C@@H](CN)C(=O)N[C@H]1CCNC(=O)[C@H]([C@@H](C)O)NC(=O)[C@H](CCCN)NC(=O)[C@H](CCN)NC(=O)[C@H]([C@@H](C)O)NC(=O)[C@@H](CC(C)C)NC(=O)[C@H](CCN)NC1=O)[C@@H](C)O gave an MIC of 16 µg/mL (ATCC 19606, CAMHB; 20 h, 37 °C).
The MIC of CC[C@H]1OC(=O)[C@H](C)[C@@H](OC(=O)Cc2ccc(N)cc2)[C@H](C)[C@@H](O[C@@H]2O[C@H](C)C[C@H](N(C)C)[C@H]2O)[C@](C)(OC)C[C@@H](C)C(=O)[C@H](C)[C@@H](O)[C@]1(C)O is reported as over 32 µg/mL (microbial growth; ATCC19606).
With COc1cc(C(=O)O)ccc1NC(=O)c1ccc(NC(=O)c2ccc(NC(=O)[C@H](Cc3c[nH]nn3)NC(=O)c3ccc(NC(=O)/C(C)=C/c4ccc(O)cc4)cc3)cc2)c(OC)c1 the MIC was 16 µg/mL (broth microdilution; ciprofloxacin-resistant).
The MIC of CCCCCCCCCCCC[N+](C)(C)CCCCCCCCOc1cc(OCCCCCCCC[N+](C)(C)CCCCCCCCCCCC)cc(OCCCCCCCC[N+](C)(C)CCCCCCCCCCCC)c1.[Br-].[Br-].[Br-] is reported as 125 µM (ATCC 17978).
With CC1(C)[C@H](NC(=O)/C(=N\OC2(C(=O)O)CCCCC2)c2csc(N)n2)C(=O)N1OS(=O)(=O)O the MIC was over 64 µg/mL (agar dilution; 16-16).
CC(C)C[C@@H]1NC(=O)[C@@H](CC(C)C)NC(=O)[C@H](CCN)NC(=O)[C@@H](NC(=O)[C@H](CCN)NC(=O)[C@@H](N)[C@@H](C)O)CCNC(=O)[C@H]([C@@H](C)O)NC(=O)[C@H](CCN)NC(=O)[C@H](CCN)NC1=O has an MIC of over 128 µg/mL (broth microdilution; ATCC 17978, cation-adjusted Mueller-Hinton broth; 18 to 20 h, 37 °C, 0.002% polysorbate 80).
CC[C@H]1OC(=O)[C@H](C)[C@@H](OC(=O)Cc2c(F)cc([N+](=O)[O-])cc2F)[C@H](C)[C@@H](O[C@@H]2O[C@H](C)C[C@H](N(C)C)[C@H]2O)[C@](C)(OC)C[C@@H](C)C(=O)[C@H](C)[C@@H](O)[C@]1(C)O has an MIC of 32 µg/mL (microbial growth; ATCC19606).
The MIC of CCCCCCCC(=O)N[C@@H](CCN)C(=O)N[C@H](C(=O)N[C@@H](CCN)C(=O)N[C@H]1CCNC(=O)[C@H]([C@@H](C)O)NC(=O)[C@H](C)NC(=O)[C@H](CCN)NC(=O)[C@H](CC(C)C)NC(=O)[C@@H](Cc2ccccc2)NC(=O)[C@H](CCN)NC1=O)[C@@H](C)O is reported as over 512 µg/mL (CLSI broth microdilution; 5075, CAMHB; 20 h, 37 °C).
CC1(C)[C@H](NC(=O)/C(=N\OCCN)c2csc(N)n2)C(=O)N1OS(=O)(=O)O gave an MIC of over 64 µg/mL (agar dilution; 16-16).
CCCCCC[N+](C)(C)CCCCCCCCCCOc1cc(OCCCCCCCCCC[N+](C)(C)CCCCCC)cc(OCCCCCCCCCC[N+](C)(C)CCCCCC)c1.[Br-].[Br-].[Br-] gave an MIC of 2 µM (ATCC 17978).
CCCCCCCC(=O)N[C@@H](CCN)C(=O)N[C@H](C(=O)N[C@@H](CN)C(=O)N[C@H]1CCNC(=O)[C@H]([C@@H](C)O)NC(=O)[C@H](CCN)NC(=O)[C@H](CCN)NC(=O)[C@H]([C@@H](C)O)NC(=O)[C@@H](CC(C)C)NC(=O)[C@H](CN)NC1=O)[C@@H](C)O gave an MIC of 0.5 µg/mL (ATCC 17978, CAMHB; 20 h, 37 °C).
For CC[C@H]1OC(=O)[C@H](C)[C@@H](OC(=O)Cc2ccc3c(c2)OCO3)[C@H](C)[C@@H](O[C@@H]2O[C@H](C)C[C@H](N(C)C)[C@H]2O)[C@](C)(OC)C[C@@H](C)C(=O)[C@H](C)[C@@H](O)[C@]1(C)O, the MIC was 0.125 µM (DSM 30007; together with: colistin sulfate at 0.5 x MIC).
CC1(C)C(NC(=O)C(=NOC2(C(=O)O)CCC2)c2csc(N)n2)C(=O)N1OS(=O)(=O)O (stereo not shown) has an MIC of 16 µg/mL (agar dilution; ATCC 19606).
With CCCCCCCC(=O)N[C@@H](CN)C(=O)N[C@H](C(=O)N[C@@H](CN)C(=O)N[C@H]1CCNC(=O)[C@H]([C@@H](C)O)NC(=O)[C@H](CCN)NC(=O)[C@H](CCN)NC(=O)[C@H]([C@@H](C)O)NC(=O)[C@@H](CC(C)C)NC(=O)[C@H](CCN)NC1=O)[C@@H](C)O the MIC was 0.5 µg/mL (ATCC 19606, CAMHB; 20 h, 37 °C).
COc1cc(C(=O)O)ccc1NC(=O)c1ccc(NC(=O)c2ccc(NC(=O)[C@H](Cc3c[nH]nn3)NC(=O)c3ccc(NC(=O)/C(C)=C/c4ccc(O)cc4)cc3)cc2)cc1 gave an MIC of 4 µg/mL (broth microdilution; ciprofloxacin-resistant).
The MIC of CC1(C)C(NC(=O)C(=NOC2(C(=O)O)CC2)c2csc(N)n2)C(=O)N1OS(=O)(=O)O (stereo not shown) is reported as 16 µg/mL (agar dilution; ATCC 19606).
CCCCCCCC(=O)N[C@@H](CCN)C(=O)N[C@H](C(=O)N[C@@H](CCN)C(=O)N[C@H]1CCNC(=O)[C@H]([C@@H](C)O)NC(=O)[C@H](CCN)NC(=O)[C@H](C)NC(=O)[C@H](CC(C)C)NC(=O)[C@@H](Cc2ccccc2)NC(=O)[C@H](CCN)NC1=O)[C@@H](C)O has an MIC of 16 µg/mL (CLSI broth microdilution; 246-01-C.246, CAMHB; 20 h, 37 °C).
CC1(C)C(NC(=O)C(=NOCC(=O)N2CC3CCCC3C2C(=O)O)c2csc(N)n2)C(=O)N1OS(=O)(=O)O (stereo not shown) has an MIC of over 64 µg/mL (agar dilution; ATCC 19606).
With COc1ccc2ccc(O)c(/C=N/[C@H]3CCCC[C@H]3/N=C/c3ccc(F)cc3O)c2c1 the MIC was over 40 µM (bacterial growth, broth microdilution; carbapenem-resistant clinical isolate).
For COC(=O)CNC(=O)c1ccc(NC(=O)c2[nH]c(C)c(Cl)c2Cl)c(N2CCN(C(=O)OC(C)(C)C)CC2)c1, the MIC was over 32 µg/mL (microbial growth, broth dilution; ATCC19606).
For COc1c(NC(=O)c2ccc(NC(=O)c3ccc(NC(=O)[C@H](Cc4c[nH]nn4)NC(=O)c4ccc(NC(=O)/C(C)=C/c5ccc(O)cc5)cc4)cc3)cc2)ccc(C(=O)O)c1O, the MIC was 8 µg/mL (broth microdilution; ciprofloxacin-resistant).
CN[C@H](CC(C)C)C(=O)N[C@H]1C(=O)N[C@@H](CC(N)=O)C(=O)N[C@H]2C(=O)N[C@H]3C(=O)N[C@H](C(=O)N[C@H](C(=O)NCC(N)=O)c4cc(O)cc(O)c4-c4cc3ccc4O)[C@H](O)c3ccc(c(Cl)c3)Oc3cc2cc(c3O[C@@H]2O[C@H](CO)[C@@H](O)[C@H](O)[C@H]2O[C@H]2C[C@](C)(NCc3ccc(OCc4cn(CC(=O)N[C@H](C(=O)N[C@@H](CCN)C(=O)N[C@H]5CCNC(=O)[C@H]([C@@H](C)O)NC(=O)[C@H](CCN)NC(=O)[C@H](CCN)NC(=O)[C@H](CC(C)C)NC(=O)[C@@H](CC(C)C)NC(=O)[C@H](CCN)NC5=O)[C@@H](C)O)nn4)c(OC)c3)[C@H](O)[C@H](C)O2)Oc2ccc(cc2Cl)[C@H]1O gave an MIC of 16 µg/mL (broth microdilution; BAA-747, cation-adjusted Mueller-Hinton broth; 18 to 20 h, 37 °C, 0.002% polysorbate 80).
CC(=O)NC[C@H]1CN(c2ccc(N3CCN(C(=O)CN)CC3)c(F)c2)C(=O)O1: MIC “inactive” (broth dilution; ATCC 19606).
For CCCCCCCC(=O)N[C@@H](CCN)C(=O)N[C@H](C(=O)N[C@@H](CCN)C(=O)N[C@H]1CCNC(=O)[C@H]([C@@H](C)O)NC(=O)[C@H](CCN)NC(=O)[C@H](CCN)NC(=O)[C@H](CC(C)C)NC(=O)[C@@H](Cc2ccccc2)NC(=O)[C@H](CCN)NC1=O)[C@@H](C)O, the MIC was 0.25 µg/mL (CLSI broth microdilution; 246-01-C.246, CAMHB; 20 h, 37 °C).
CCCCCCCCn1cc[n+](CCCCCCOc2cc(OCCCCCC[n+]3ccn(CCCCCCCC)c3)cc(OCCCCCC[n+]3ccn(CCCCCCCC)c3)c2)c1.[Br-].[Br-].[Br-] gave an MIC of 1 µM (ATCC 17978).

Repeated from above:
The MIC of CC1(C)C(NC(=O)C(=NOC2(C(=O)O)CC2)c2csc(N)n2)C(=O)N1OS(=O)(=O)O (stereo not shown) is reported as 16 µg/mL (agar dilution; ATCC 19606).
The MIC of CCCCCCCC(=O)N[C@@H](CCN)C(=O)N[C@H](C(=O)N[C@@H](CCN)C(=O)N[C@H]1CCNC(=O)[C@H]([C@@H](C)O)NC(=O)[C@H](C)NC(=O)[C@H](CCN)NC(=O)[C@H](CC(C)C)NC(=O)[C@@H](Cc2ccccc2)NC(=O)[C@H](CCN)NC1=O)[C@@H](C)O is reported as over 512 µg/mL (CLSI broth microdilution; 5075, CAMHB; 20 h, 37 °C).
CCCCCCCC(=O)N[C@@H](CCN)C(=O)N[C@H](C(=O)N[C@@H](CN)C(=O)N[C@H]1CCNC(=O)[C@H]([C@@H](C)O)NC(=O)[C@H](CCN)NC(=O)[C@H](CCN)NC(=O)[C@H]([C@@H](C)O)NC(=O)[C@@H](CC(C)C)NC(=O)[C@H](CN)NC1=O)[C@@H](C)O gave an MIC of 0.5 µg/mL (ATCC 17978, CAMHB; 20 h, 37 °C).
